Assay results from different studies.
Several values in a cell are separate wells, animals, samples, runs or records. ± marks the error that the study gave.

Compound = CCC(C(=O)Nc1ccc(C(N)=O)c(F)c1)n1cc(OC)c(-c2cc(Cl)ccc2-n2cc(C(F)(F)F)nn2)cc1=O (centres unmarked); system = healthy male humans; conditions = 25 mg, ASD vs IR, fed; quantity = mild adverse events; value = 0%
Compound = C/C(N)=N/C(=N\S(=O)(=O)c1ccc(C(F)(F)F)cc1)N1C[C@H](c2ccccc2)C(c2ccc(Cl)cc2)=N1; system = male C57BL/6 mouse, lung; conditions = oral, 10 mg/kg; quantity = Cmax; value = 6730 ng/mL
Compound = C=CC(=O)Nc1cc(Nc2nccc(-c3c[nH]c4ccccc34)n2)c(OC)cc1N(C)CCN(C)C; test = storage stability; system = human dried blood spots; conditions = 72 h, -80 °C, LLOQ level; quantity = recovery; value = 87.7%
Compound = CCC1CNC(CC)CN(C(C(=O)[O-])c2ccc(C(=O)[O-])cc2)C(CC)CN(CC(=O)[O-])C(CC)CN1.[Mn+2] (centres unmarked); test = ICP-MS; system = BALB/c mouse, brain; conditions = intravenous, 0.05 mmol/kg, 1440 min, without anaesthesia; quantity = Mn content; value = 0.75 ± 0.18 µg/g
Compound = CCC(CC)n1c(Cc2cccs2)nc2cc(C(=O)N[C@@H](CC(=O)O)c3ccccc3)ccc21; test = echocardiography, item: LVEF, FS; system = mouse; conditions = dose not given, 2 wk; quantity = cardiac function; value = no effect
Compound = C=CC(=O)N1CCCC(n2c(=O)c3ncccc3n(Cc3ccc(Oc4ccccc4)cc3)c2=O)C1 (centres unmarked); system = male BALB/c mice, plasma; conditions = oral, 200 mg/kg, 2 h; quantity = plasma concentration; value = 9020 ng/mL and 8160 ng/mL
Compound = O=C(Nc1cnccc1-c1ccc([18F])nc1)c1ccnc(NC(=O)C2CC2)c1; system = mice, transgenic, GSK-3β, early-stage, pancreas; conditions = intravenous, dose not given, 120 min, together with: tariquidar 15 mg/kg i.v. pre-dose; quantity = SUV; value = 0.246
Compound = C[C@@H](Nc1c(-c2c(F)cc(C#N)cc2F)c(Cl)nc2ncnn12)C(C)(C)C; test = item: brain, heart, liver, kidney, spleen; system = wild-type mice; conditions = intraperitoneal, 10 to 20 mg/kg twice weekly, 3 weeks; quantity = organ weight; value = no effect
Compound = C=C(NC(=O)c1csc(-c2nc3c(cc2O)-c2nc(cs2)C(=O)NC(C(C)O)C(=O)NC(=C(C)OC)c2nc(cs2)C(=O)NC2c4nc(cs4)C(=O)NC(COC(=O)c4c5c6c(cccc6n4O)COC(=O)C(OC4CC(C)(O)C(N(C)C)C(C)O4)C2OC5)c2nc-3cs2)n1)C(N)=O (centres unmarked); system = Sprague-Dawley rat, female, plasma; conditions = intravenous infusion, 6 mg/kg, multiple doses, day 7; quantity = Cmax; value = 3970 ng/mL
Compound = CCCCN1C(=O)c2cccc3c(NCCCCCCN4CCOCC4)ccc(c23)C1=O; system = water; conditions = pH 6.0; quantity = molar extinction coefficient; value = 13100 M⁻¹ cm⁻¹
Compound = O=C(O)c1c(O)cc(O[C@@H]2O[C@H](CO)[C@@H](O)[C@H](O)[C@H]2O)cc1/C=C/c1ccccc1; system = Sprague-Dawley rat, plasma; conditions = oral, 5.0 mg/kg; quantity = AUC(0-inf); value = 90.7 ± 15.6 ng·h/mL
Compound = CCCCN1C(=O)c2cccc3c(NCCN4CCOCC4)ccc(c23)C1=O; system = EtOAc; quantity = molar extinction coefficient; value = 6390 M⁻¹ cm⁻¹
Compound = CC(C)[C@@H]1NC(=O)[C@@H](CCCNC(=N)N)NC(=O)[C@H]([C@@H](C)O)NC(=O)[C@@H](CCCN)NC(=O)[C@H](Cc2cccc(F)c2)NC(=O)[C@@H](Cc2ccccc2)NC1=O; test = haemolysis; system = human; conditions = 100 µM; quantity = haemolysis; value = < 10%
Compound = CC(C)[C@H](NC(=O)[C@H](Cc1c[nH]c2ccccc12)NC(=O)[C@H](CCCNC(=N)N)NC(=O)[C@H](CCCNC(=N)N)NC(=O)[C@@H](NC(=O)[C@@H](NC(=O)[C@H](CCCNC(=N)N)NC(=O)[C@@H](NC(=O)[C@@H](NC(=O)[C@H](CCCNC(=N)N)NC(=O)[C@H](CCCNC(=N)N)NC(=O)[C@@H](NC(=O)[C@H](Cc1c[nH]c2ccccc12)NC(=O)[C@H](CCCNC(=N)N)NC(=O)[C@H](CCCNC(=N)N)NC(=O)[C@@H](NC(=O)[C@H](CCCNC(=N)N)NC(=O)[C@H](CCCNC(=N)N)NC(=O)[C@@H](NC(=O)[C@H](Cc1c[nH]c2ccccc12)NC(=O)[C@H](CCCNC(=N)N)NC(=O)[C@@H](N)CCCNC(=N)N)C(C)C)C(C)C)C(C)C)C(C)C)C(C)C)C(C)C)C(C)C)C(=O)N[C@@H](CCCNC(=N)N)C(=O)N[C@@H](CCCNC(=N)N)C(=O)O; system = CD1 mouse, plasma; conditions = intravenous, 15 mg/kg, 24 h, [14C]-labelled compound; quantity = blood urea nitrogen; value = 16.3 mg/dL
Compound = CCCCCCCOc1ccc(CC[C@](N)(CO)COP(=O)(O)O)cc1C(F)(F)F; system = healthy men, urine; conditions = oral, 0.75 mg once daily, day 1, fed state; scale = baseline: dose; quantity = urinary excretion (0-24 h); value = 0%
Compound = CN1CCC[C@]1(C)/C=C/S(=O)(=O)NC(=O)Nc1c2c(cc3c1CCC3O)CCC2 (some centres unmarked); system = human, plasma; conditions = oral, 50 mg twice daily of parent drug, day 14, metabolite of dosed drug; quantity = AUC(0-t); value = 925000 ng·h/mL
Compound = COc1ccc2c(c1)O[B-]1(c3ccccc3)OC(=O)C(c3ccccc3)=N[N+]1=C2 (centres unmarked); system = toluene; quantity = molar absorption coefficient; value = 22000 M⁻¹ cm⁻¹
Compound = CCCC[C@H](NC(=O)COCCOCCNC(=O)CN1CCN(CC(=O)O)CCN(CC(=O)O)CC1)C(=O)N[C@H]1CC(=O)NCCCC[C@@H](C(N)=O)NC(=O)[C@H](Cc2c[nH]c3ccccc23)NC(=O)[C@H](CCCNC(=N)N)NC(=O)[C@@H](Cc2ccccc2)NC(=O)[C@H](Cc2c[nH]cn2)NC1=O [fluorine-18 labelled]; test = HPLC; system = C57 mice, urine; conditions = 1 h; quantity = intact fraction; value = ~90%
Compound = CCCCN1C(=O)c2cccc3c(NCCCCCCCCN4CCOCC4)ccc(c23)C1=O; system = water; conditions = pH 6.0; quantity = molar extinction coefficient; value = 11000 M⁻¹ cm⁻¹
Compound = O=C([O-])CN1CCN(CC(=O)[O-])CCN(C(CO)C(O)CO)CCN(CC(=O)[O-])CC1.[Dy+3] (centres unmarked); system = female cynomolgus monkey, plasma; conditions = intravenous, dose not given, up to 48 h; quantity = terminal half-life; value = 25.5 h
Compound = CCC1C=C(C)C(O)C(C)CC(OC)C2OC(O)(C(=O)C(=O)N3CCCCC3C(=O)OC(C(C)=CC3CCC(O)C(OC)C3)C(C)C(O)CC1=O)C(C)CC2OC (centres unmarked); system = C57BL/6 mouse, blood; conditions = topical single dose, dose not given, 1 h; quantity = blood concentration; value = not detected
Compound = CCCCN1C(=O)c2cccc3c(NCCCCCCCCCCN4CCOCC4)ccc(c23)C1=O; system = dichloromethane; quantity = fluorescence lifetime; value = 10.4 ns
Compound = O=C1CCC(N2Cc3cc(C(=O)O)c(F)cc3C2=O)C(=O)N1 (centres unmarked); system = cynomolgus monkey, male; conditions = oral, 0.3 mg/kg parent drug, 4 h; quantity = plasma concentration; value = 5.2 ± 4 ng/mL
Compound = CNC(=O)C[C@H](Cc1ccc(C#N)cc1)NC(=O)c1cc(-c2ccc(CN[C@H](C)c3ccc(C)cc3)o2)ccc1Cl; system = rat hepatocytes; conditions = 1 µM; quantity = blood clearance; value = 61.7 mL/min/kg
Compound = COCC1CN(C2CCN(c3cc(OC)c(Nc4ncc(Br)c(Nc5ccc6c(c5P(C)(C)=O)OCCO6)n4)cc3C)CC2)C1; system = EGFR-mutant NSCLC patients, plasma; conditions = oral, 10 mg single dose, median; quantity = Tmax; value = 2 h
Compound = CN1CCCNC(=O)c2cccc(c2)C(=O)NCCCN(C)CCCNc2cccc3c2C(=O)c2cccc(c2C3=O)NCCC1; system = mice, serum; conditions = dose not given; quantity = AST; value = 53 IU/L
Compound = CN(O)C(=O)CCC(=O)NCCCN(CCCCN(CCCNC(=O)CCC(=O)N(C)O)C(=O)CCC(=O)N(C)O)C(=O)CCC(=O)N(C)O.[89Zr]; test = radio-TLC; system = aqueous buffer; conditions = 1 d, pH 5, 37 °C, 89Zr-labelled complex, together with: DTPA 1000-fold excess; quantity = intact complex; value = 83.9 ± 1.6%
Compound = O=C(O)CCCOc1ccc([18F])cc1-c1cc(-c2ccccc2C(F)(F)F)n(-c2ccccc2)n1; system = mouse, blood; conditions = intravenous, dose not given, 5 min; quantity = tissue uptake; value = 0.61 ± 0.1 %ID/g
Compound = OC1(C(F)(F)F)CCN(c2nc(Nc3ccnc(C(F)(F)F)c3)nc(-c3cccc(C(F)(F)F)n3)n2)C1 (centres unmarked); system = Sprague-Dawley rat, both sexes, plasma; conditions = oral gavage, 5 mg/kg, day 1; quantity = AUC(0-inf); value = 9780 ± 1200 ng·h/mL

Repeated from above:
Compound = C[C@@H](Nc1c(-c2c(F)cc(C#N)cc2F)c(Cl)nc2ncnn12)C(C)(C)C; test = item: brain, heart, liver, kidney, spleen; system = wild-type mice; conditions = intraperitoneal, 10 to 20 mg/kg twice weekly, 3 weeks; quantity = organ weight; value = no effect
Compound = C=C(NC(=O)c1csc(-c2nc3c(cc2O)-c2nc(cs2)C(=O)NC(C(C)O)C(=O)NC(=C(C)OC)c2nc(cs2)C(=O)NC2c4nc(cs4)C(=O)NC(COC(=O)c4c5c6c(cccc6n4O)COC(=O)C(OC4CC(C)(O)C(N(C)C)C(C)O4)C2OC5)c2nc-3cs2)n1)C(N)=O (centres unmarked); system = Sprague-Dawley rat, female, plasma; conditions = intravenous infusion, 6 mg/kg, multiple doses, day 7; quantity = Cmax; value = 3970 ng/mL
Compound = CCCCN1C(=O)c2cccc3c(NCCCCCCN4CCOCC4)ccc(c23)C1=O; system = water; conditions = pH 6.0; quantity = molar extinction coefficient; value = 13100 M⁻¹ cm⁻¹
